Experimental data pooled from the literature.
Lines come from different studies, so protocols differ. ± gives the spread as reported.

Structure (SMILES) | test | test system | conditions | scale | quantity | result
O=C(c1cc(Cl)c(O)c(Cl)c1)N1CS(=O)(=O)c2ccccc21 | – | healthy Chinese adults, fasted, plasma | oral, 1 mg single dose | – | AUC(0-24h) | 1080 ± 213 ng·h/mL
CN(C)C(=O)c1cc2cnc(Nc3ccc(N4CCNCC4)cn3)nc2n1C1CCCC1 | – | Japanese cancer patients, plasma | oral, 600 mg, steady state, with proton pump inhibitor, geometric mean | – | AUC(0-24h) | 42600 ng·h/mL
C#C[C@]1(O)CC[C@H]2[C@@H]3CCc4cc(O)ccc4[C@H]3CC[C@@]21C | – | postmenopausal women with type 2 diabetes | oral, dose not given, added: semaglutide steady state | baseline: with over without semaglutide | AUC(0-24h) ratio | 1.11
Cc1ccc(-c2ncc(Cl)cc2-c2ccc(S(C)(=O)=O)cc2)cn1 | – | patients after hip surgery, plasma | oral, 120 mg | – | AUC(0-24h) | 22200 ng·h/mL
Br.Cc1ccc(Sc2ccccc2N2CCNCC2)c(C)c1 | – | healthy adults, plasma | 10 mg at steady state, day 16, added: omeprazole 40 mg single dose | – | AUC(0-24h) | 256 ng·h/mL
CNC(=O)c1cc(Oc2ccc(NC(=O)Nc3ccc(Cl)c(C(F)(F)F)c3)c(F)c2)ccn1 | – | metastatic colorectal cancer patients, plasma | oral, 120 mg once daily, steady state, alone | – | AUC(0-24h) | 55900 ng·h/mL
COc1cc2c(cc1Cc1cccc(Cl)c1F)c(=O)c(C(=O)O)cn2[C@H](CO)C(C)C | – | rhesus macaque, plasma | oral, 30 mg/kg, added: FTC 20 mg/kg, TAF, cobicistat 30 mg/kg | – | AUC(0-24h) | 14000 ng·h/mL
CC(C)(C(=O)NCC(F)(F)C(F)(F)F)C(=O)N[C@@H]1C(=O)Nc2ccccc2-c2ccccc21 | refers to: total drug | advanced breast cancer patients, plasma | oral, median | baseline: combination over alone | AUC(0-24h) ratio | 14%
COc1ccc2[nH]c([S+]([O-])Cc3ncc(C)c(OC)c3C)nc2c1 (stereo not drawn) | LC-MS/MS | healthy adults, plasma | oral, 40 mg/day for 7 days, day 25, steady state, mean, added: icosapent ethyl 4 g/day | – | AUC(0-24h) | 3140 ng·h/mL

A few entries again:
Structure (SMILES) | test | test system | conditions | scale | quantity | result
COc1cc2c(cc1Cc1cccc(Cl)c1F)c(=O)c(C(=O)O)cn2[C@H](CO)C(C)C | – | rhesus macaque, plasma | oral, 30 mg/kg, added: FTC 20 mg/kg, TAF, cobicistat 30 mg/kg | – | AUC(0-24h) | 14000 ng·h/mL
